Assay results of several laboratories.
Every numbered part comes from another study and shows a few of its results, in no order. Positions count from the first letter of the parent shown.
Sequence of UniProt O15294 (whole entry, looked up): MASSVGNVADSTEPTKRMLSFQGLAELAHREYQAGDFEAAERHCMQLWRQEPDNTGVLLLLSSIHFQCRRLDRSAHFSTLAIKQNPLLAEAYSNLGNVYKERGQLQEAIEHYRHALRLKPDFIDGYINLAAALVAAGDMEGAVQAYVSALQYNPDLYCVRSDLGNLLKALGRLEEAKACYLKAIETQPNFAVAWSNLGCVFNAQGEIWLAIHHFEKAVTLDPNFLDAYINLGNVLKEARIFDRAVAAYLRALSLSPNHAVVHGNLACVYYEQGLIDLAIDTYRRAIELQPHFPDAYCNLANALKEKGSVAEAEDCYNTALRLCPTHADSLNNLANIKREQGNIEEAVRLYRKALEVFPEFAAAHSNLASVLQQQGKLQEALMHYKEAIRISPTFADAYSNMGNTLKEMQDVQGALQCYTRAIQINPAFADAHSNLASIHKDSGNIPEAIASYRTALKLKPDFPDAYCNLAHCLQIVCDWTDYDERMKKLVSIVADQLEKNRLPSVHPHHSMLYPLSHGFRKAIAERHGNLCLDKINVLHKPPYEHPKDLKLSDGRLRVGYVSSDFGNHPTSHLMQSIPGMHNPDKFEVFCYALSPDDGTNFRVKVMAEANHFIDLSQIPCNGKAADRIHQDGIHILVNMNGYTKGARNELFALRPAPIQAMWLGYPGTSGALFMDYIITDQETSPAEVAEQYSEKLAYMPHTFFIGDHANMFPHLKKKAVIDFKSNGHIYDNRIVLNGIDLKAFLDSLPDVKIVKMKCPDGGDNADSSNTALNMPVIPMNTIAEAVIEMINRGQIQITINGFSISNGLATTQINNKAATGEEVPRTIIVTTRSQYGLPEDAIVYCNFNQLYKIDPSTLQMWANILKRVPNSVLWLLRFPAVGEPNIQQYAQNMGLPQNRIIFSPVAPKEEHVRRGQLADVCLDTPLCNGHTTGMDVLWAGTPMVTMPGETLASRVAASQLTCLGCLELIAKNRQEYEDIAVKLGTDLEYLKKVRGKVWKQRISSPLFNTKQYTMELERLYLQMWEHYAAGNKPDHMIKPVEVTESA

Study 1 — technique: RNAcompete; form: RNA; matrix: in vitro; concentration: 20 nM; setting: 7-mer, probes averaged, single round; relative to: mean of 7-mers; direction: higher = stronger binding
Target: PABPC1L2, full length, GST fusion (mouse, UniProt A0ABA7IW68)
Construct (chain): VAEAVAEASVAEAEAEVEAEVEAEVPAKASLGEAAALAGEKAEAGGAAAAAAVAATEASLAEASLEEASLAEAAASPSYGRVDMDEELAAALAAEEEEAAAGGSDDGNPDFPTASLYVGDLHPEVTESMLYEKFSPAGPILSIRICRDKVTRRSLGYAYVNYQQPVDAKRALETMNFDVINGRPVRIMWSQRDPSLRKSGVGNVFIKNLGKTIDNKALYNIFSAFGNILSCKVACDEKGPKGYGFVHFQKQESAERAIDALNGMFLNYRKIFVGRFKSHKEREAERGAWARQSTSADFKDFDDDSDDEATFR
The 7-mer Z-score of `GGGCUGA` is reported as 0.601.
`AGGUGGU` gave a 7-mer Z-score of 0.066.
`CCCCCGG` gave a 7-mer Z-score of -0.467.
The 7-mer Z-score of `GUCGCAA` is reported as -0.0554.
The 7-mer Z-score of `AUGUGGC` is reported as 0.0497.
For `UUAGGGA`, the 7-mer Z-score was 0.124.
`AACUCUA` gave a 7-mer Z-score of -0.0174.
`GAAGACC` gave a 7-mer Z-score of -0.0917.

Study 2 — technique: DNA-protein interaction ELISA; form: double-stranded DNA, one strand shown; matrix: in vitro, bacterial lysate; concentration: not given; setting: whole dsDNA probe, crude lysate protein; relative to: highest signal in screen; direction: higher = stronger binding
Target: Probable WRKY transcription factor 33, C-terminal DNA-binding domain (WRKY33, Arabidopsis thaliana, UniProt Q8S8P5, residues 346-449)
Residues (chain): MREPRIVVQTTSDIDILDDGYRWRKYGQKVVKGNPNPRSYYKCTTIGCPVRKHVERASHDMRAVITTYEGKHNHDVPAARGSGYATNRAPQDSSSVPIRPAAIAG
With `AAAAAAAACTCCCATACTACAACCGAAAAA` the relative absorbance was 44.3 % of maximum.
The relative absorbance of `AAAAAAGCTCGTCTCCGCCTCCTGCTAAAA` is reported as 71.4 % of maximum.
`AAAAAAGGCCGTTGGACCTCGGTCTAAAAA` gave a relative absorbance of 52.8 % of maximum.
`AAAAAATCCTTTTCTCTTTCTGTTTCAAAA` gave a relative absorbance of 27.2 % of maximum.
With `AAAAAACCCCAGATTTCCAGCAGTTCAAAA` the relative absorbance was 42.2 % of maximum.
`AAAAAACATTGATAAAATCTCCAGGCAAAA` has a relative absorbance of 33.4 % of maximum.
The relative absorbance of `AAAAAATTCAGAGCTTCGAGGTTCCGAAAA` is reported as 28.9 % of maximum.
`AAAAAACATAACCGCAAAATCCCTACAAAA` gave a relative absorbance of 31.4 % of maximum.

Other studies, line by line — CCND1: CCND1, cyclin fold, Cln2 fusion (human)
P1: viral docking peptide; YKVKRRLVFGADD; partner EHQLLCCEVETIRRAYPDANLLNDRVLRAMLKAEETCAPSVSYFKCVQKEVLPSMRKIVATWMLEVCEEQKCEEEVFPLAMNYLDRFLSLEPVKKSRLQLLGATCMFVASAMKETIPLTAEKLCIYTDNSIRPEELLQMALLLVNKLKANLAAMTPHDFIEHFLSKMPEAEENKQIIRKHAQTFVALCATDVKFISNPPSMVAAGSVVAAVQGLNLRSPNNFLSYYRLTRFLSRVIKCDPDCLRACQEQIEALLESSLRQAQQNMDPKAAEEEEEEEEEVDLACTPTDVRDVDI
`P1 R5S`: “normalised enrichment score” 0.0515 (CCND1; yeast growth competition, sequencing; yeast; strong parent motif; relative to: not given, higher = stronger binding).
`VDYRPAYPIDWAPWK` — result for “enrichment fold change”: 5.85 (UDP-N-acetylglucosamine--peptide N-acetylglucosaminyltransferase 110 kDa subunit (OGT, Homo sapiens, UniProt O15294); binding, phage display NGS; peptide; concentration not given, normalized abundance; relative to: input library).
`P1 K4T` — result for “normalised enrichment score”: 0.591 (CCND1; yeast growth competition, sequencing; yeast; strong parent motif; relative to: not given, higher = stronger binding).

Repeated from above (study 1):
The 7-mer Z-score of `AUGUGGC` is reported as 0.0497.
